Results gathered from unrelated publications.
A part holds a random share of what one study measured.

Series 1
Target: RNA binding protein fox-1 homolog 2, RRM domain, GST-SBP tag (RBFOX2, Homo sapiens, UniProt O43251-10, residues 100-194)
Technique: RNA Bind-n-Seq
Form: RNA
Medium: in vitro
Concentration: 365 nM
Notes: natural RNA segment, single round, ends assumed
Reference: no-protein control
Reading: higher = stronger binding
Residues (chain): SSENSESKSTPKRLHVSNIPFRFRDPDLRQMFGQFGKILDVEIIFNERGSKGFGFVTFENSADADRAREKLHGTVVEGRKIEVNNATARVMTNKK
`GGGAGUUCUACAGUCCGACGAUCGCUGCCUUUUGUCUAGCCUGCUAUGGGGGGCCAGAUUAUCUUGAUAAGAGCAGGUGAUUUGGGGACUAGCUGGGUUGGCAGGAAAAGAGCAGGAUGGAUCUCUUGGGACAUGGAAUUCUCGGGUGCCAA` — result for “RBNS enrichment (R)”: 1.29.
`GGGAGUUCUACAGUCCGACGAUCGCCAAAACAAACUGGUUCCAUGCCUUCCUUGCAGUGAACGUUACAAUGGAUGUGGUUGUCAAUGUGAAUAGCUUAGAGUACUACAAAGGGUAAGCUAACUGAAUGCCUUGUGGAAUUCUCGGGUGCCAA` — result for “RBNS enrichment (R)”: 0.516.
For `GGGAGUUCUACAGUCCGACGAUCGGUGCCCUCUGUAGGCCUUCACACAGGGAAGGAAGCCCUACCCUUUCAACUCCUGUUGGAGUGAGAGUUUCCUGUUCUGAUUCCACUGUGGCCAACCCAAUAAUUCUGUCUGGAAUUCUCGGGUGCCAA`, “RBNS enrichment (R)” read 0.219.
Under “RBNS enrichment (R)”, `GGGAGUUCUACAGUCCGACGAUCUUCCCUCUGCCCUUUCUCUGGCUUCCUCUGCUCCUCCUCAUCCCUGCAGGCAAAGGAAACCCUCUGCUGCUUCCUUCCCCAGGAGCCAGGUGGGCACUGAAUGUGGUUUUUGGAAUUCUCGGGUGCCAA` is recorded as 0.505.
Under “RBNS enrichment (R)”, `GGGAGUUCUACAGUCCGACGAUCAUCCACUCCAAGCCAUGCUAGGAAUCUGCCCCCUGCCGGGUUCAGCUCUUUAAGGUGCCUCUUCAGGGACACAGUGUGUGUCUGAUUGGGCUUCGCAUCAAAAGCCUGACUGGAAUUCUCGGGUGCCAA` is recorded as 0.298.
Under “RBNS enrichment (R)”, `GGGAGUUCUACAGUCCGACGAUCCUCUUGGAGGCUUUCCCUGGAUUCCCUGAGUACAGUGUUAAAAGGCCUAACCACACAGCCACCUGCCCUAAGUGACAUUGUGUUUUUAGGUGUCACCGUCUUAGCCCUUUUGGAAUUCUCGGGUGCCAA` is recorded as 0.269.
For `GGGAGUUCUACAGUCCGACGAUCGUGAAGCUGGGAGCAGAUCAUGUAUUUCCCGGAGACGUGGGACCUUGCUGGCAUGUCUCCUUCACAAUCAGGCGUGGGAAUAUCUGGCUUAGGACUGUUUCUCUCUAAGAUGGAAUUCUCGGGUGCCAA`, “RBNS enrichment (R)” read 2.39.
`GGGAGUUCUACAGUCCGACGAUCCUGCACUGGGAAGGAAACAAAUGUGUAUAAACUGCUGUCAAUAAAUGACACCCAGACCUUCCGGCUCGCCAUGGGUUGGUUUUUUGUUUGUGGGAGCCGUGGGAUCAGAAUGGAAUUCUCGGGUGCCAA` — result for “RBNS enrichment (R)”: 1.17.
Under “RBNS enrichment (R)”, `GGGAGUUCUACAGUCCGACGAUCAUCUUCAGGACUGCAAUCAUUCUGCCUAUAGGUCAGAACUGAGCUAGGAUGGAAUCUUGAAACAUAUUCUGACCUCCAAUGAAAAGAUAUGGGCAUACAAGGUGAGUUGUUGGAAUUCUCGGGUGCCAA` is recorded as 0.361.
`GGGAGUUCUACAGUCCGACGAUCGCCUCUGGAGGUGCCUUUGGCCACAUGUGCUGUGCUGUUUGUCUCCUCGACAGGGAGCCUGUCCACCAGCAGGCUGCGGUCCCAGCGGGUGCGUCUGCAGCUCCUCCCCUUGGAAUUCUCGGGUGCCAA`: “RBNS enrichment (R)” 0.185.
For `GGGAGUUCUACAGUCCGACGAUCGUUAAAAUUAGAGAUUUCUUUUUAUUUUCCAGUUAUAGUAAUACUAGCUGUCAGCUUAAACCCUCUGUAAUAGAACAUGGAAACAGACACAUAAAGACAUUAGCUGAAAAUGGAAUUCUCGGGUGCCAA`, “RBNS enrichment (R)” read 1.
`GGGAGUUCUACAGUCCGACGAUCAUGGGCAGAGUGGAGCUGACACUCUCUCCUCAGGCAGCCUCCUCAGCCUUUAUUCGUCAACGGCCUCUGCUCAGCCAGGCCCUUCCAGACAAAAGGCACUGAGGAACUUGUGGAAUUCUCGGGUGCCAA`: “RBNS enrichment (R)” 0.354.

Series 2
Target: Interferon regulatory factor 5, full length, phosphomimetic (IRF5, Homo sapiens, UniProt Q13568-2, residues 1-514, S451D/S453D/S456D/S462D)
Technique: protein-binding microarray
Form: double-stranded DNA, one strand shown
Medium: in vitro
Concentration: 940 nM top
Notes: 60-bp whole probe
Added: salmon DNA 0.4 mg/ml
Reference: random background probes
Reading: higher = stronger binding
Shared flanks, not repeated: GCCTAGCAC … GTCTTGATTCGCTTGACGCTGCTG
`GACGATATTAGTTTCGAGACGTGCTAG`: “fitted relative affinity” 5.15 z-score.
For `ATCTCACTCTGTCCCTCTGTGTGCTAG`, “fitted relative affinity” read 1.8 z-score.
For `TCAGATTTCGGGTATCGATTAGTGCTA`, “fitted relative affinity” read 3.38 z-score.
For `TTAGATATCGGCTTTCGATTAGTGCTA`, “fitted relative affinity” read 1.63 z-score.
`TCAAGCTTGGGTCTGTGACTGTGCTAG` — result for “fitted relative affinity”: -0.439 z-score.
Under “fitted relative affinity”, `GACGGTATCCGACTGCTGACGTGCTAG` is recorded as -0.395 z-score.
Under “fitted relative affinity”, `TCAGTGTTCTTTTCTGTTACTGTGCTA` is recorded as 0.951 z-score.
Under “fitted relative affinity”, `CACGATTTCGGGTATCGAGACGTGCTA` is recorded as 1.53 z-score.
For `TCCCACAGTCGAAAGTCTGCGTGCTAG`, “fitted relative affinity” read 0.555 z-score.
`TCAATTTTCATTTTCCAACTGTGCTAG` — result for “fitted relative affinity”: 1.81 z-score.
`GACGAACTGGGGACTGGAGCCGTGCTA` — result for “fitted relative affinity”: -0.102 z-score.
`TTAGAACTGAGTTCCGATTAGTGCTAG`: “fitted relative affinity” 0.329 z-score.
Under “fitted relative affinity”, `GACGTTTTCGACTATCGGGACGTGCTA` is recorded as 0.981 z-score.
`GACGATATCAGACTGGAGACGTGCTAG` — result for “fitted relative affinity”: -0.439 z-score.
`GACGGTCTGCTACTGCTGACGTGCTAG` — result for “fitted relative affinity”: -0.703 z-score.
Under “fitted relative affinity”, `TCATTTCCAATTCTCTTACTGTGCTAG` is recorded as 1.52 z-score.
Under “fitted relative affinity”, `TTAGGGCTGCTACTGCTTTAGTGCTAG` is recorded as -0.67 z-score.
Under “fitted relative affinity”, `GACGATTTCAGGTCCGAGACGTGCTAG` is recorded as 0.0896 z-score.
For `TCAGTTTTCTGGTTCCCACTGTGCTAG`, “fitted relative affinity” read 1.17 z-score.
`ATCCCGCCTGCCCCACAGAAGTGCTAG` — result for “fitted relative affinity”: 0.368 z-score.
For `AGCAGAAAGTGAAATACCCTCGTGCTA`, “fitted relative affinity” read -0.0613 z-score.
`GACGGTAACGGGTATCGGGACGTGCTA`: “fitted relative affinity” 0.805 z-score.
`TTACAACTGGGGACTGGATTAGTGCTA`: “fitted relative affinity” 0.0415 z-score.
`TTAGTTTTCGGTTCCGGTTAGTGCTAG` — result for “fitted relative affinity”: 6.05 z-score.
For `GACGATATCAGACTGGATACGTGCTAG`, “fitted relative affinity” read -0.325 z-score.

Series 3
Target: PABPC1L2, full length, GST fusion (mouse, UniProt A0ABA7IW68)
Technique: RNAcompete
Form: RNA
Medium: in vitro
Concentration: 20 nM
Notes: 7-mer, probes averaged, single round
Reference: mean of 7-mers
Reading: higher = stronger binding
Residues (chain): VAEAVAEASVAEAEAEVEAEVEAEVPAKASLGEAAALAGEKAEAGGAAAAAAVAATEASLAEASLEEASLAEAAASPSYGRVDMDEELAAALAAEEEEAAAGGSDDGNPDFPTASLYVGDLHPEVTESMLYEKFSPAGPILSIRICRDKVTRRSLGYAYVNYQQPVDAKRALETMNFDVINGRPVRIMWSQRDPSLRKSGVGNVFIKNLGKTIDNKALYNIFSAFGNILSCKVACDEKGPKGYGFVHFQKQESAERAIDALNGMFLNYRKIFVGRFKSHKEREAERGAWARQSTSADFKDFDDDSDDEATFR
For `CACCGGA`, the 7-mer Z-score was -0.0138.
The 7-mer Z-score of `GUGUAAC` is reported as -0.122.
`CGUCUUG` gave a 7-mer Z-score of -0.481.
With `AGCGCGU` the 7-mer Z-score was -0.179.
For `UACUUUC`, the 7-mer Z-score was -0.286.
The 7-mer Z-score of `CAGCACC` is reported as -0.0482.
With `CUCGCGA` the 7-mer Z-score was -0.26.
For `CCAGUAG`, the 7-mer Z-score was -0.228.
The 7-mer Z-score of `ACCGAAG` is reported as -0.0645.
`ACAUCAU` has a 7-mer Z-score of -0.0156.
`GACACAA` gave a 7-mer Z-score of 0.178.
`CUUGAAA` has a 7-mer Z-score of 0.427.
With `UGAUUUC` the 7-mer Z-score was -0.38.
`UUGGGUU` has a 7-mer Z-score of -0.335.
The 7-mer Z-score of `UUUCAAG` is reported as -0.358.
For `CACACAC`, the 7-mer Z-score was -0.103.
For `AUUUAUU`, the 7-mer Z-score was -0.0101.
For `UCCCAAC`, the 7-mer Z-score was -0.162.
`GCGAGCC` gave a 7-mer Z-score of -0.11.
`AACUACU` gave a 7-mer Z-score of 0.0315.
With `CUCCUCC` the 7-mer Z-score was -0.36.
For `CCACGGC`, the 7-mer Z-score was -0.132.
With `GCUUGUG` the 7-mer Z-score was -0.284.
`AACGCGC` gave a 7-mer Z-score of 0.0678.
With `UCGGAAA` the 7-mer Z-score was 0.472.

Series 4
Target: TAR DNA-binding protein 43, full length, His tag (TARDBP, Homo sapiens, UniProt Q13148, residues 1-414)
Technique: RNA Bind-n-Seq
Form: RNA
Medium: in vitro
Concentration: 20 nM
Notes: 6-mer, flanks averaged, single round
Added: 150 mM LiCl
Reference: input library
Reading: higher = stronger binding
For `CAGGGU`, “6-mer enrichment (R)” read 1.03.
`UGAGUG`: “6-mer enrichment (R)” 1.68.
Under “6-mer enrichment (R)”, `CACUCA` is recorded as 0.858.
`GUUCAA`: “6-mer enrichment (R)” 0.888.
`CCUAGG` — result for “6-mer enrichment (R)”: 0.878.
`AUACUG` — result for “6-mer enrichment (R)”: 0.865.
`CGUGAC`: “6-mer enrichment (R)” 0.902.
Under “6-mer enrichment (R)”, `CAGUCC` is recorded as 0.862.
For `CCACAC`, “6-mer enrichment (R)” read 0.926.
Under “6-mer enrichment (R)”, `GUGGGC` is recorded as 1.25.
`AUUAUC` — result for “6-mer enrichment (R)”: 0.906.
For `GCAACA`, “6-mer enrichment (R)” read 0.866.
`CGAUUC`: “6-mer enrichment (R)” 0.829.
For `GCGGUG`, “6-mer enrichment (R)” read 1.26.
`UGUACC`: “6-mer enrichment (R)” 0.955.
`CCCCGC`: “6-mer enrichment (R)” 1.2.
For `UCUCGU`, “6-mer enrichment (R)” read 0.904.
Under “6-mer enrichment (R)”, `UCGACG` is recorded as 0.835.
Under “6-mer enrichment (R)”, `GGCCAG` is recorded as 1.02.
Under “6-mer enrichment (R)”, `UAUGUU` is recorded as 1.37.
Under “6-mer enrichment (R)”, `ACAUGG` is recorded as 0.928.
`GUAUAU`: “6-mer enrichment (R)” 1.06.
For `AAUGUG`, “6-mer enrichment (R)” read 1.32.
For `UAUUGA`, “6-mer enrichment (R)” read 0.963.
Under “6-mer enrichment (R)”, `UUCUGC` is recorded as 0.942.

Series 5
Target: Histone acetyltransferase KAT6A, both winged helices, GST fusion (KAT6A, Homo sapiens, UniProt Q92794, residues 1-181)
Technique: protein binding microarray
Form: double-stranded DNA, one strand shown
Medium: in vitro
Concentration: not given
Notes: 8-mer, flanks averaged, mean of 2 arrays, mostly near background
Reference: not given
Reading: higher = stronger binding
Residues (chain): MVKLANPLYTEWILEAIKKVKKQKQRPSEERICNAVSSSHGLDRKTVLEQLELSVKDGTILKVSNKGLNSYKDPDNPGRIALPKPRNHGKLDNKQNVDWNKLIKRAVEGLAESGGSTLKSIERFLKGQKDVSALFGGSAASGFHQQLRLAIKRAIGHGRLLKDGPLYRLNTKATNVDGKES
For `CTTAGCGC`, the E-score was 0.274.
`CACCACAG` gave an E-score of -0.105.
`GAGGATAC` has an E-score of -0.161.
`TACGTAAA` has an E-score of -0.0123.
The E-score of `ATAACTTC` is reported as -0.0385.
The E-score of `ACTCCAGT` is reported as -0.223.
`GCAGCCGA` gave an E-score of 0.146.
For `GTGTTAAA`, the E-score was -0.0796.
`CGAAGACC` gave an E-score of -0.00501.
With `CTACCGTC` the E-score was 0.168.
For `AGCTCAAC`, the E-score was -0.178.
The E-score of `ATGTGGGA` is reported as -0.125.
With `TTCAGAAA` the E-score was -0.142.
`CTCTGATC` has an E-score of -0.0602.
With `CGAAGTAG` the E-score was -0.052.
`CACGCACG` gave an E-score of 0.235.
The E-score of `AGCACCGC` is reported as 0.185.
`AGTCAGCC` gave an E-score of -0.084.
For `ATTTCTAG`, the E-score was 0.0324.
